Published values pooled from the literature.
Parts stem from different laboratories: compare values within a part only. Substitutions count along the parent as printed.

Set 1
Target: Protein max, full length (MAX, Homo sapiens, UniProt P61244-2, residues 1-151)
Technique: protein-binding microarray
Form: double-stranded DNA, one strand shown
Matrix: in vitro
Tested at: not given
Notes: k-mer, scored over probes, only values ≥0.25
Reading: higher = stronger binding
Measurement: E-score
CGTGGATC: 0.309
CCTCATGC: 0.389
CCTCATGA: 0.325
CGGCATGA: 0.357
AGCGCGCG: 0.28
GTGGCACA: 0.303
ACGCGGCA: 0.357
ACGTGATC: 0.418
CTGCACAC: 0.317
ATGTGTCG: 0.32
CACGTGAC: 0.495
GGGCATGA: 0.277
ATACACGC: 0.404
CCACCACG: 0.361
CACGCTGA: 0.434
CATGCTAG: 0.361
CGTGGGCC: 0.368
ATCACATG: 0.478
ACGTGATG: 0.433

Set 2
Target: CCNA2, cyclin fold, Cln2 fusion (human)
Technique: yeast growth competition, sequencing
Matrix: yeast
Notes: strong parent motif
Baseline: not given
Reading: higher = stronger binding
Measurement: normalised enrichment score
Starting sequence: ASZ1 docking peptide (human); GFGFLLFICKLTF; partner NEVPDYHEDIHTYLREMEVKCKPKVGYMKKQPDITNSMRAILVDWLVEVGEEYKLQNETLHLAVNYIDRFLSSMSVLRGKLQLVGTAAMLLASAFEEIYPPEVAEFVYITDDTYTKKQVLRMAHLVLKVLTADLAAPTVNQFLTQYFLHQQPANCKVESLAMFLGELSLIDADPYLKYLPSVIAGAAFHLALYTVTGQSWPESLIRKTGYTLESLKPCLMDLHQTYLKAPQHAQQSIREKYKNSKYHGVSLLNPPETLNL
I8A: 0.847
L6A: 1.65
G1A: 1.38
F13A: 1.33
F2A: 1.1
T12A: 1.33
L5A: 1.4

Set 3
Target: PABPC1L2, full length, GST fusion (mouse, UniProt A0ABA7IW68)
Technique: RNAcompete
Form: RNA
Matrix: in vitro
Tested at: 20 nM
Notes: 7-mer, probes averaged, single round
Baseline: mean of 7-mers
Reading: higher = stronger binding
Measurement: 7-mer Z-score
Target sequence (chain): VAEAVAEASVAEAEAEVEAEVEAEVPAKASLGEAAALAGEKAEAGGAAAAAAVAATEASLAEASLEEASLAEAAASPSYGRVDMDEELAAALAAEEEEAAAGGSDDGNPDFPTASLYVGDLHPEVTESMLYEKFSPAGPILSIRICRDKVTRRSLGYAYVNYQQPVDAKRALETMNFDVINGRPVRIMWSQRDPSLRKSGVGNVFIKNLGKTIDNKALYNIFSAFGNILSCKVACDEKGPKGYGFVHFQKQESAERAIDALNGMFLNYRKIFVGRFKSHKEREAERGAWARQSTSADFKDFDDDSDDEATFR
CGAGUUU: -0.356
GAGCUUC: -0.222
GUACGCC: -0.199
AGUUGAU: 0.00254
CUACUAG: -0.191
GGUCGAU: -0.115
UGAUGCA: -0.0935
GCAGGGA: 0.253
ACUCUGG: -0.0917
AUAAUUU: -0.0663
CCGGUGC: -0.228
ACUUGGU: 0.146
AUGACAU: -0.012
UGAGCGA: 0.0315
AGGCCGU: -0.157
AGGUCAG: -0.0264
CAUCAGU: -0.197
ACAUUUA: 0.254
CGCUGCG: -0.369
UGUGGUA: -0.2
CCCAUAC: -0.269
AGUAGCC: -0.262
CGAGCUC: -0.382
GACAAAU: 0.76
AAGAGGU: 0.579

Set 4
Target: Ras GTPase-activating protein-binding protein 1, C-terminal RGG region (G3BP1, Homo sapiens, UniProt Q13283)
UniProt Q13283, sequence (whole entry, looked up): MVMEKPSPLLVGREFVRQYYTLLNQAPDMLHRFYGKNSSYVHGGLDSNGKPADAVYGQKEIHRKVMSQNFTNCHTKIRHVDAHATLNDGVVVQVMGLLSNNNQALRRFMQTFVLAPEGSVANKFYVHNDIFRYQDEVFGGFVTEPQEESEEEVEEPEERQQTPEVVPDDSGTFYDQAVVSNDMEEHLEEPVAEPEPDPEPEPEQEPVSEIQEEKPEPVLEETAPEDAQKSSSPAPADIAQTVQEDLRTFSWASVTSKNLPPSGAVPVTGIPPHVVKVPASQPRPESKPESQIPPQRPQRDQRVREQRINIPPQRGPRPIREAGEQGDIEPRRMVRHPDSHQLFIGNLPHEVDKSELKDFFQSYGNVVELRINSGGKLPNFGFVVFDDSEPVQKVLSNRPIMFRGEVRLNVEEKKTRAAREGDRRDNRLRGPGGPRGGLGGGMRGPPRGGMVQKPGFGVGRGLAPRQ
Technique: RNA Bind-n-Seq
Form: RNA
Matrix: in vitro
Tested at: 1 µM
Notes: whole 134-nt RNA, ends assumed
Together with: 150 mM KCl
Baseline: input library
Reading: higher = stronger binding
Measurement: log2 enrichment
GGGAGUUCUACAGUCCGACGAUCCCUGUGCUACACAUCGUAUGUACCGAAUCGGGGUUUGGGGUUUUUUUGGGGAAAAAGGGGAAAGUAUUAUGUUACGCCGUUCGGAUCUGCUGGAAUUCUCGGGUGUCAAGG: 0.847
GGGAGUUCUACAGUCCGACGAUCUAACUUUACAGGAGGAUCUGAUGGAUAUGGCAGUGGACGUGGAUUUGGGGAUGGCUAUAAUGGGUAUGGAGGAGGACCUGGAGGUGGCAAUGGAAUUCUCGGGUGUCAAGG: -1.9
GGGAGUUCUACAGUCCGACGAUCUGUGCUACACAUCGUAUGUACCGAAUCGGGCCCCCCCGGGGCCCCCCCGGGCCCCCCCGGGGAAAGUAUUAUGUUACGCCGUUCGGAUCUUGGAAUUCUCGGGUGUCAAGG: -2.62
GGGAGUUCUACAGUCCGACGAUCUGGCCCUGGUGGCAUGCGGGGAGGAAGAGGUGGCCUCAUGGAUCGUGGUGGUCCCGGUGGAAUGUUCAGAGCUGGCCGUGGUGGAGACAGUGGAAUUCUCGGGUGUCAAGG: 3.83
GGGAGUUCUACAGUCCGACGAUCUCAAGUCCUGUGCUACACAUCGUAUGUACCGAAUCGGCCCCGGCCCCGGCCCCGGAAAGUAUUAUGUUACGCCGUUCGGAUCUGCACUUCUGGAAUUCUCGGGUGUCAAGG: -2.08
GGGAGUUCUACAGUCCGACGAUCUUUAGCCUGUGGAAUGAUAGCAGUAGGGUCCUGCAAUGGAGAUGUAACUUCCACUAUCCUUCAGACCAUCAUGGAGAAGUCAGAGACUGAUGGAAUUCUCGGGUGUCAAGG: -0.862
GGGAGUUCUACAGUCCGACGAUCUGUGCUACACAUCGUAUGUACCGAAUCGGGGCCCCCCCGGGGCCCCCCCGGCCCCCCCGGGGAAAGUAUUAUGUUACGCCGUUCGGAUCUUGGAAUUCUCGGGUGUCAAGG: -2.52
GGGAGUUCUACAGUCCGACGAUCCCUGUGCUACACAUCGUAUGUACCGAAUCGGGAAAAAAAGGAAAAAAAGGAAAAAAAGGGGAAAGUAUUAUGUUACGCCGUUCGGAUCUGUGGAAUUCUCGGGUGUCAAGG: -1.77
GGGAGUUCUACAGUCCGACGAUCUCCUGUGCUACACAUCGUAUGUACCGAAUCGGGAAAGGGUUUUUUUGGGAAAAAAAGGGAAAGUAUUAUGUUACGCCGUUCGGAUCUGCAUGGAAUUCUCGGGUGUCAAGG: -0.841
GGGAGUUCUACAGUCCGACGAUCGUCCUGUGCUACACAUCGUAUGUACCGAAUCAAACCCAAAUUUUUAAAUUUUUUUAAAAAAGUAUUAUGUUACGCCGUUCGGAUCUGCACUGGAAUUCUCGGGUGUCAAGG: -1.36
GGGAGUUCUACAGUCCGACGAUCUCAAGUCCUGUGCUACACAUCGUAUGUACCGAAUCGGGUGGGUGGGAAAAAGGGAAAGUAUUAUGUUACGCCGUUCGGAUCUGCACUUCCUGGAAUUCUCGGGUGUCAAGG: 1.19
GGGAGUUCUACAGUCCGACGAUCUGGGAGGUCGAUUUUGUUUAUUUUUUUAGCUCAUUUCCAGGGGUGGGAAUUUUUUUUUAAUAUGUGUCAUGAAUAAAGUUGUUUUUGAAAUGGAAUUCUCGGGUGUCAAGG: 2.67
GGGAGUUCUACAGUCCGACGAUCACCAUGCAGGUGGGCAUCUGUGGGAAGUGGGGCAAGGGGGGGAUAGGGAGGGGGGUAACACUUUGGGAACAGGUGGUCCCAGGUCGUUUCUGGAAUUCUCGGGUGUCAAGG: -1.23
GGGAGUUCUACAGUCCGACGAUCGCAGGAAGUAAAAACAAAUGGAAAUGCUUCGGAUAGUGGCAGGGGUGGGGGUUGCUAAGGAAAGGGUGGGAUGGGAGUCGGUAAAGAGUUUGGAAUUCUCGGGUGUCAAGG: 1.96

Set 5
Target: RNA binding protein fox-1 homolog 2, RRM domain, GST-SBP tag (RBFOX2, Homo sapiens, UniProt O43251-10, residues 100-194)
Technique: RNA Bind-n-Seq
Form: RNA
Matrix: in vitro
Tested at: 365 nM
Notes: natural RNA segment, single round, ends assumed
Baseline: no-protein control
Reading: higher = stronger binding
Measurement: RBNS enrichment (R)
Residues (chain): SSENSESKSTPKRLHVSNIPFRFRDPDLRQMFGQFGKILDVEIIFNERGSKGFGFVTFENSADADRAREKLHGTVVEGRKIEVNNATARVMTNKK
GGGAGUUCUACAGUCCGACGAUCUUUGCAUUGUUUUUGAACUAUUGGGACUUAGUACUUACGACUUCAUUAAAGAAAAUGGUUUUCUACCAUUUCGACUGGAUCAUAUCAGAAAGAUGGCAUAUCAGAUAUGCUGGAAUUCUCGGGUGCCAA: 0.588
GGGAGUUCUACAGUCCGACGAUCCAAAACACACAGAUAUUAUUAGAGAGACUUUACUUUCUAGUGCUGGAAUAACCAUGGAGCAAAGAGAACAGAAUCCCAUUCCAAGAGUCCCUCUCUCUCCAACAUCUUGAUGGAAUUCUCGGGUGCCAA: 0.432
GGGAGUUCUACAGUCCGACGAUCCUGCAACUGAGCCACCCACUCCCAAACAGGAAACCCUGGUGAAGGUUCAGGAAGCACGGAGAUUCUCUCCAACAAAGGUCCAGUUAGGAAACGACGCUGAGAGGAUGACGUGGAAUUCUCGGGUGCCAA: 0.204
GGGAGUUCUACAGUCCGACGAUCCCCUGUGCUCCGUUCCUCAGCCGUUUGGACAGGGAGCUCCGCUGUCACCAAGGAGCCCAUGUGAGACACACUGCUGUGACUGCCUCUUGUUAAUGUCAGCAUCACCUCAUUGGAAUUCUCGGGUGCCAA: 0.682
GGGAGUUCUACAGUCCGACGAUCGCUGUCUAUUAGCCUUGCCUGCCCCACCCAUGAGGUAGGCAGAAAUCCUCACUGCCAGCCCCUCUUAAACAGGUAGAGAGCUGUGAGCCCCAGCCCCACCUGACUCCAGCUGGAAUUCUCGGGUGCCAA: 0.187
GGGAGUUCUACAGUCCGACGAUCCUGAGUGGAAAGGGGUUUUUGUUCUGUUUUUAUUUUACCUACAUGUACUAUUUAGCUUCAGUGUACUAGUCCUGCCACCUGUGUAUUUUUAGGGUGCUAUGGAAAUAAUGUGGAAUUCUCGGGUGCCAA: 1.63
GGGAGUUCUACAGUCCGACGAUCAUUUUCAGGAAAUCACUGUAUUAGGAAUGUGCAAUGACUUAUAUAAAUAAAAGCCAUUUUUAAAACUUUUGGGGCUUGUGUUCUAAUUAUUCCCCCCUUUUUUUUAUUUCUGGAAUUCUCGGGUGCCAA: 0.948
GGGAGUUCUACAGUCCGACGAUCCGGAAAUCUUUAAGUUAUUUGUUGAGGUACCAUAUAUUUAGGGUGCUAGGGGCAAGUAAUGUUAAUAUGUGCAAUAGGAACUACUGGUUUGAAUGUGUAAAUGGGUGAUCUGGAAUUCUCGGGUGCCAA: 1.55
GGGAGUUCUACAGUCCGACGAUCUUCCCUGGAUCUUCCCCCCACUCCUCACACCUCACAUGUCCCAGGAGCUGCCUUCAUUCAGGCGGGUAGCUGCACUGGGCAUGGGGUGGUGGUGGGAGCUUACCGCCACCUGGAAUUCUCGGGUGCCAA: 0.283
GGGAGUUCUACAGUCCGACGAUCGGUUUUAUUUUACUGAUUUUAAAAGGUAUAUAGAAAAAUGUAGGCCUUUAAAAAGAAACAGCAUGUAGUUUUUUAUUUUAAUAUGUUCCAUAGAGUGGAUAGGCAGACAGUGGAAUUCUCGGGUGCCAA: 60.8
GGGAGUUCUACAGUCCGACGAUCACAAAGAAGGAGUUGGAGAUGAAAAAGUGGUACUGUGUCAAGGGAAGAUUUUUGUGAGUUUUCCAUCAUGUUGGCCAUCACAUCCUGACUGAAGUCUCAAGAUUCCUGGAUGGAAUUCUCGGGUGCCAA: 0.226
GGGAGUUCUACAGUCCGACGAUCUUCACUCUCUUCCUCCCACCCCCAAGACUGAGUUUUGGGGGGCAAGGUGGAGAGAGCUGGCAACUACUGUGAGCAAGUCCCCUAGCCCCUGACCAGCCUCCUCCCAUGACUGGAAUUCUCGGGUGCCAA: 0.211

Mixed results
PhoQ, residues 284 288 289 292 302 303 SSCLAV — fold induction (PhoP, residues 12 14 15 18 19 GHCSL (Escherichia coli, UniProt P23836); Sort-seq, measured: YFP reporter; E. coli; PhoQ-PhoP variant library, together with: 10 µM Mg2+; baseline: high Mg2+ state, higher = stronger signaling): 15.6

For quick reference, copied from above (set 2):
F2A: 1.1
I8A: 0.847
T12A: 1.33
G1A: 1.38
F13A: 1.33
L6A: 1.65
L5A: 1.4
